Results from different studies.
Compare with care: the assays were run in different laboratories. ± marks the error that the study gave.
Target: Delta-type opioid receptor (Oprd1, Rattus norvegicus, UniProt P33533)
Chain of UniProt P33533 (whole entry, looked up): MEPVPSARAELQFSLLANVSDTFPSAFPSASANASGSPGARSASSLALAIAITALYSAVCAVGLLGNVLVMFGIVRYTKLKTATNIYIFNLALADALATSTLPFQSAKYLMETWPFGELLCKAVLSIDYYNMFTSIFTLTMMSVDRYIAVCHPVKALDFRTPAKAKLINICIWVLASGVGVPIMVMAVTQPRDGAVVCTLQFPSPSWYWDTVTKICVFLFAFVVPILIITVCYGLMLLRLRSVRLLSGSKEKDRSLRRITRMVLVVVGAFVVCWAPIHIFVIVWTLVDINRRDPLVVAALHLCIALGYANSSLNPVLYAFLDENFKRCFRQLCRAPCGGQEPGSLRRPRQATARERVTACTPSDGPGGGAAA

With `CC(C)C[C@H](NC(=O)C1(NC(=O)CNC(=O)[C@H](NC(=O)[C@@H](N)Cc2ccc(O)cc2)[C@H](C)O)Cc2ccccc2C1)C(=O)N[C@@H](CO)C(N)=O` the Ki was > 5000 nM (ligand displacement, radioligand; pH 7.4, cell membranes).
For `Cc1cc(O)cc(C)c1CC(N)C(=O)NC1CCNc2ccc(Cc3ccc4c(c3)OCO4)cc21` (stereo not shown), the Ki was 4.3 nM (ligand displacement, radioligand; cell membranes).
`Cc1cc(O)cc(C)c1CC(N)C(=O)NC1CCNc2c(Cc3ccccc3)cc(Cc3ccccc3)cc21` (stereo not shown) gave a Ki of 1.6 nM (ligand displacement, radioligand; cell membranes).
`CC[C@H](C)[C@H](NC(=O)[C@@H](N)Cc1ccc(O)cc1)C(=O)N[C@@H](Cc1ccccc1)C(=O)N[C@@H](CC(N)=O)C(=O)N[C@@H](CC(C)C)C(=O)O` has an IC50 of 82.5 ± 8.1e-08 nM (binding; rat brain membranes; together with: [3H]DPDPE).
For `Cc1cc(O)cc(C)c1CC(N)C(=O)NC1CCNc2ccc(CN3CCCCC3)cc21` (stereo not shown), the Ki was 120 nM (ligand displacement, radioligand; cell membranes).
The EC50 of `Cc1cc(O)cc(C)c1CC(N)C(=O)NC1CCNc2c(CN3CCOCC3)cc(Cc3ccccc3)cc21` (stereo not shown) is reported as 180 nM (GTPγS binding, agonist, radiometric; cell membranes).
For `CC(C)C[C@H](NC(=O)[C@H](Cc1ccc2ccccc2c1)NC(=O)CNC(=O)[C@H](NC(=O)[C@@H](N)Cc1ccc(O)cc1)[C@H](C)O)C(=O)N[C@@H](CO[C@@H]1O[C@H](CO)[C@@H](O)[C@H](O)[C@H]1O)C(N)=O`, the EC50 was 26 nM (GTPγS binding, agonist, radiometric; cell membranes).
With `CCCc1cc(Cc2ccccc2)cc2c1NCCC2NC(=O)C(N)Cc1c(C)cc(O)cc1C` (stereo not shown) the EC50 was 310 nM (GTPγS binding, agonist, radiometric; cell membranes).
`Cc1cc(O)cc(C)c1CC(N)C(=O)NC1CCNc2ccc(Cc3ccoc3)cc21` (stereo not shown) gave a Ki of 18 nM (ligand displacement, radioligand; cell membranes).
`Cc1cc(O)cc(C)c1C[C@H](N)C(=O)N1Cc2ccccc2C[C@H]1CN[C@@H](Cc1ccccc1)C(=O)N[C@@H](Cc1ccccc1)C(N)=O` has an IC50 of 2.2 ± 0.9 nM (cAMP inhibition, agonist; C6 expressing target; together with: forskolin).
`Cc1cc(O)cc(C)c1CC(N)C(=O)NC1CCNc2ccc(Cc3ccc4ncccc4c3)cc21` (stereo not shown) gave a Ki of 23 nM (ligand displacement, radioligand; cell membranes).
With `Cc1cc(O)cc(C)c1C[C@H](N)C(=O)N[C@@H]1CSCCSC(C)(C)[C@H](C(=O)N[C@@H](CO[C@@H]2O[C@H](CO)[C@@H](O)[C@H](O)[C@H]2O)C(N)=O)NC(=O)C2(Cc3ccccc3C2)NC1=O` the Kd was 6.1 ± 1.5 nM (antagonist; together with: DPDPE).
`CC(C)C[C@H](NC(=O)[C@H](Cc1cccc2ccccc12)NC(=O)CNC(=O)[C@H](NC(=O)[C@@H](N)Cc1ccc(O)cc1)[C@H](C)O)C(=O)N[C@@H](CO)C(N)=O` gave an EC50 of 35 nM (GTPγS binding, agonist, radiometric; cell membranes).
